Measurements from different studies.
Compare with care: the assays were run in different laboratories. ± gives the spread as reported. In brackets after ≈: the same amount, converted by molar mass.

`CCC(NC(=O)CN1C(=O)N/C(=C\c2ccc(C)cc2)C1=O)C(=O)OC` (centres unmarked) has an IC50 of over 100 µM (Leishmania major; parasite growth, resazurin; promastigote).
`CC[C@H]1[C@@H](O)[C@@H]2[C@H](CC[C@]3(C)[C@@H]([C@H](C)CCOS(=O)(=O)[O-])CC[C@@H]23)[C@@]2(C)CC[C@@H](O)C[C@@H]12.[Na+]`: “NAFLD activity score” 6.3 ± 0.2 (histology; ob/ob NASH mouse model, liver; oral, 3 mg/kg once daily, before treatment, baseline of 8 week study; direction not given).
For `CC(C)C[C@@H]1NC(=O)[C@H](CCCCN)NC(=O)CNC(=O)[C@H]2CCCN2C(=O)[C@H](CCCCN)NC(=O)[C@H](CC(C)C)NC(=O)[C@H](CCCCN)NC(=O)[C@H](CC(C)C)NC(=O)[C@H](CCCCN)NC(=O)C(N)CCC=CCCC(C(N)=O)NC(=O)[C@H](CCCCN)NC(=O)[C@H](CC(C)C)NC(=O)[C@H](CCCCN)NC1=O` (some centres unmarked), “inner membrane permeabilization” read about 80% (Escherichia coli; SYTOX green uptake; ATCC 25922; 1× MIC, 1 h, pH 7, 37 °C; reference: BTT1).
`CC[C@H](C)[C@H](NC(=O)[C@H](CS)NC(=O)[C@@H](NC(=O)[C@@H]1CCCN1C(=O)[C@H](Cc1ccccc1)NC(=O)[C@H](CC(N)=O)NC(=O)[C@@H](NC(=O)[C@H](CC(=O)O)NC(=O)CCNC(=O)CNC(=O)O[C@H]1CC[C@@]2(C)C(=CC[C@H]3[C@@H]4CC[C@H]([C@H](C)CCCC(C)C)[C@@]4(C)CC[C@@H]32)C1)[C@@H](C)O)[C@@H](C)CC)C(=O)N[C@@H](Cc1ccccc1)C(N)=O`: collagen deposition “increased” (Escherichia coli; Picrosirius Red staining; mouse, lung; intratracheal, 25 nmol per mouse, 24 h).
`Cc1cc2[nH]c(C(=O)NC(C)c3ccccc3)c(CN3CCOCC3)c2s1` (centres unmarked) gave an IC50 of over 10 µM (Giardia duodenalis; parasite growth; 48 h).
The selectivity ratio of `CC/C(=C\c1ccc(OCC(=O)NC(C(=O)N2CCOCC2)c2ccccc2)cc1)[N+](=O)[O-]` (centres unmarked) is reported as 7.34 (Leishmania donovani; THP-1, intracellular amastigotes in macrophages; reference: CC50 THP-1 over IC50 amastigotes).
The IC50 of `CCOC(=O)C(NC(=O)CN1C(=O)N/C(=C\c2ccc3c(c2)OCO3)C1=O)C(C)C` (centres unmarked) is reported as over 10 µM (Leishmania major; parasite growth; 72 h, intracellular, amastigote).
For `COc1ccc2c(c1CC=C(C)C)O[C@H]1c3cc4c(cc3OC[C@@]21O)OC(C)(C)C=C4`, antibacterial activity read “inactive” (Enterococcus faecalis; ATCC 29212; concentration not given).
With `Cc1cc(O)c2c(c1)C(=O)c1cc3oc(=O)cc(-c4ccc(Cl)cc4)c3c(O)c1C2=O` the inhibition zone was 10 mm (Klebsiella aerogenes; microbial growth, disc diffusion; 100 µg/disc).
Under activity, `CC(C)C[C@H](NC(=O)[C@H](C)NC(=O)[C@H](C)NC(=O)[C@H](CC(N)=O)NC(=O)[C@H](CO)NC(=O)[C@H](CCC(=O)O)NC(=O)[C@H](CCC(=O)O)NC(=O)[C@H](CC(=O)O)NC(=O)[C@H](CCCCN)NC(=O)[C@H](CO)NC(=O)[C@H](CC(=O)O)NC(=O)[C@H](C)NC(=O)[C@@H](Cc1ccc(O)cc1)NC(=O)[C@@H](N)CO)C(=O)N[C@@H](CO)C(=O)N[C@@H](CC(=O)O)C(=O)N[C@@H](Cc1ccccc1)C(=O)N[C@@H](C)C(=O)N[C@@H](CCC(=O)O)C(=O)N[C@@H](CC(=O)O)C(=O)O` is recorded as “inactive” (Aplysia; feeding network activity, electrophysiology; buccal and cerebral ganglia; concentration not given).
`CCOC(=O)C(C)NC(=O)CN1C(=O)N/C(=C\c2ccc(C)cc2)C1=O` (centres unmarked) has an IC50 of over 10 µM (Leishmania major; parasite growth; 24 h, intracellular, amastigote).
With `C[C@@H](O)[C@H](NC(=O)c1ccc(C#Cc2ccc(CN3CCOCC3)cc2)cc1)C(=O)NO` the MIC90 was over 64 µg/mL (Stenotrophomonas maltophilia; microbial growth, broth dilution; clinical isolate).
For `CC(C)(C)NCC(SS(=O)(=O)O)c1ccccc1` (centres unmarked), “female worm burden reduction” read 100% (Schistosoma mansoni; mice; oral, 400 mg/kg single dose, 42 days post-infection; reference: vehicle).
The ROS generation of `CC(C)C[C@H](NC(=O)[C@H](Cc1ccc(O)cc1)NC(=O)[C@@H]1CCCN1C(=O)[C@H](CCCNC(=N)N)NC(=O)[C@@H]1CCCN1C(=O)[C@H](CCCCN)NC(=O)[C@H](CC(=O)O)NC(=O)[C@@H]1CCCN1C(=O)[C@H](CCCNC(=N)N)NC(=O)C1(N)CCCCC1)C(=O)N1CCC[C@H]1C(=O)N[C@@H](CCCNC(=N)N)C(=O)N1CCC[C@H]1C(=O)N[C@@H](CCCNC(=N)N)C(=O)N1CCC[C@H]1C(=O)N1CCC[C@H]1C(=O)N[C@@H](CCCNC(=N)N)C(=O)N1CCC[C@H]1C(=O)N[C@H](C(=O)N[C@@H](CCCNC(=N)N)C(=O)N[C@@H](CSc1c(F)c(F)c(SC[C@H](NC(=O)[C@H](CCCNC(=N)N)NC(=O)[C@@H](NC(=O)[C@@H]2CCCN2C(=O)[C@H](CCCNC(=N)N)NC(=O)[C@@H]2CCCN2C(=O)[C@@H]2CCCN2C(=O)[C@H](CCCNC(=N)N)NC(=O)[C@@H]2CCCN2C(=O)[C@H](CCCNC(=N)N)NC(=O)[C@@H]2CCCN2C(=O)[C@H](CC(C)C)NC(=O)[C@H](Cc2ccc(O)cc2)NC(=O)[C@@H]2CCCN2C(=O)[C@H](CCCNC(=N)N)NC(=O)[C@@H]2CCCN2C(=O)[C@H](CCCCN)NC(=O)[C@H](CC(=O)O)NC(=O)[C@@H]2CCCN2C(=O)[C@H](CCCNC(=N)N)NC(=O)C2(N)CCCCC2)C(C)C)C(=O)NN)c(F)c1F)C(=O)NN)C(C)C` is reported as 1.5 fold (Acinetobacter baumannii; flow cytometry; 0.25 to 0.5 × MBC; reference: untreated).
With `CN(C)c1cc(CNCC2CCCCC2)c(O)c2c1C[C@H]1C[C@H]3[C@H](N(C)C)C(O)=C(C(N)=O)C(=O)[C@@]3(O)C(O)=C1C2=O` the MIC was 1 µg/mL (≈ 1.72 µM) (Enterococcus faecalis; JH2-2(pMV158), Tet L efflux).
`Cc1cc2[nH]c(C(=O)NC(C)c3cccnc3)c(CN3CCCCC3)c2s1` (centres unmarked) gave an IC50 of over 10 µM (Giardia duodenalis; parasite growth; 48 h).
`O=C(CCC(=O)c1ccccc1)NCCN(CC(=O)Nc1ccc(I)cc1)C(=O)CCc1cn(C[c-]2cccc2)nn1.[Fe+2].c1cc[cH-]c1` — result for antibacterial activity: “inactive” (Bacillus subtilis, Staphylococcus aureus; MIC; including MRSA; up to 512 µg/mL).
`Cc1cc(=O)oc2cc3c(c(C)c12)C(=O)c1c(O)cccc1C3=O` has an inhibition zone of 10 mm (Klebsiella aerogenes; microbial growth, disc diffusion; 100 µg/disc).
`COc1ccc(NC(=O)c2[nH]c3cc(C)sc3c2CN2CCOCC2)cc1` gave an IC50 of over 10 µM (Giardia duodenalis; parasite growth; 48 h).
With `Nc1ccn(C[C@@H](CO)OCP(=O)(O)OCCCS(=O)(=O)CCCCCCCCCCC2CCC2)c(=O)n1` the selectivity index was over 3950 (human alphaherpesvirus 2; HFF, G; reference: CC50 over EC50).
For `CN(C)c1cc(CNCC(N)=O)c(O)c2c1C[C@H]1C[C@H]3[C@H](N(C)C)C(O)=C(C(N)=O)C(=O)[C@@]3(O)C(O)=C1C2=O`, the MIC was 8 µg/mL (≈ 14.7 µM) (Enterococcus faecalis; JH2-2(pMV158), Tet L efflux).
With `Oc1c(Br)cc(Br)c2nc3c(C(F)(F)F)cc(C(F)(F)F)cc3nc12` the MBC was 0.1 µM (≈ 0.049 µg/mL) (Enterococcus; Calgary Biofilm Device; VRE 700221; biofilm).
With `CCOC(=O)CNC(=O)CN1C(=O)S/C(=C\c2ccc(OC)c(O)c2)C1=O` the IC50 was over 100 µM (Leishmania major; parasite growth, resazurin; promastigote).
`c1ccc(CN2CCOCCOCCN(CCCCCCCCN3CCOCCOCCN(CCCCCCCCN4CCOCCOCCN(Cc5ccccc5)CCOCCOCC4)CCOCCOCC3)CCOCCOCC2)cc1` gave a fold enhancement of 30 fold (Escherichia coli; tetracycline MIC, checkerboard; tetracycline-resistant (pBR322); 1/2 MIC, with: tetracycline; reference: MIC alone over combination).
For `CCOC(=O)C(CC)NC(=O)CN1C(=O)S/C(=C\c2ccc(C)cc2)C1=O` (centres unmarked), the IC50 was over 100 µM (Leishmania major; parasite growth, resazurin; promastigote).
For `CC[C@H](C)[C@H](NC(=O)[C@H](CCC(N)=O)NC(=O)[C@H](Cc1ccccc1)NC(=O)[C@H](CO)NC(=O)[C@H](CS)NC(=O)[C@H](Cc1ccccc1)NC(=O)[C@H](C)NC(=O)[C@H](CCCCN)NC(=O)[C@H](CCCNC(=N)N)NC(=O)[C@H](CCCCN)NC(=O)[C@H](CC(C)C)NC(=O)[C@H](Cc1c[nH]cn1)NC(=O)[C@@H]1CCCN1C(=O)[C@H](CCC(N)=O)NC(=O)[C@H](CC(=O)O)NC(=O)[C@H](Cc1c[nH]cn1)NC(=O)[C@H](Cc1ccccc1)NC(=O)[C@@H]1CCCN1C(=O)[C@H](CS)NC(=O)[C@H](CC(N)=O)NC(=O)[C@H](CC(=O)O)NC(=O)[C@H](CC(C)C)NC(=O)[C@H](CC(N)=O)NC(=O)[C@@H]1CCCN1C(=O)[C@H](CCC(N)=O)NC(=O)[C@@H](NC(=O)[C@H](CCCCN)NC(=O)[C@@H](NC(=O)[C@H](CS)NC(=O)[C@@H](NC(=O)[C@@H](NC(=O)[C@H](CCCNC(=N)N)NC(=O)CN)[C@@H](C)O)[C@@H](C)O)[C@@H](C)O)[C@@H](C)O)C(=O)N[C@@H](Cc1ccc(O)cc1)C(=O)N[C@@H](C)C(=O)N[C@H](C(=O)N1CCC[C@H]1C(=O)N[C@@H](Cc1c[nH]c2ccccc12)C(=O)N[C@@H](CCC(N)=O)C(=O)NCC(=O)N[C@H](C(=O)N[C@@H](CCSC)C(=O)N[C@H](C(=O)N[C@@H](CC(C)C)C(=O)N[C@@H](CO)C(=O)N[C@@H](CCCCN)C(=O)N[C@@H](CO)C(=O)N[C@H](C(=O)N[C@@H](CS)C(=O)N[C@@H](CCC(N)=O)C(=O)N[C@@H](CC(=O)O)C(=O)N[C@@H](C)C(=O)O)[C@@H](C)O)[C@@H](C)O)[C@@H](C)O)C(C)C`, the inhibition was about 60% (Simian immunodeficiency virus; infectious virus yield; human PBMCs, mac239; 10 µM, AUC-based average).

Repeated from above:
`Cc1cc2[nH]c(C(=O)NC(C)c3ccccc3)c(CN3CCOCC3)c2s1` (centres unmarked) gave an IC50 of over 10 µM (Giardia duodenalis; parasite growth; 48 h).
`O=C(CCC(=O)c1ccccc1)NCCN(CC(=O)Nc1ccc(I)cc1)C(=O)CCc1cn(C[c-]2cccc2)nn1.[Fe+2].c1cc[cH-]c1` — result for antibacterial activity: “inactive” (Bacillus subtilis, Staphylococcus aureus; MIC; including MRSA; up to 512 µg/mL).
